Results of several laboratories.
Parts stem from different laboratories: compare values within a part only. Values joined by “and” are separate records of one study, mostly repeats; a detail may differ.

Series 1
SMILES: Cn1cc(-c2cccc(CN3CCC4(CC3)COc3c4ccc4c3CN([C@H]3CCC(=O)NC3=O)C4=O)c2)cn1
Host: Crbn I391V mouse, MC-38 tumour
Measurement: body weight change
oral, daily, 30 mg/kg, day 1, anti-PD1 combination study: 0%
30 mg/kg, day 13, together with: anti-LAG3 antibody 10 mg/kg weekly: 0.8% and 1.1% and 6.1% and -0.8%
30 mg/kg, day 21, together with: anti-LAG3 antibody 10 mg/kg weekly: 0.4% and 9.3% and -3.4% and -1.2% and -1% and 6.6% and -0.4%
30 mg/kg, day 39, together with: anti-LAG3 antibody 10 mg/kg weekly: 9.5%
30 mg/kg, day 34, together with: anti-LAG3 antibody 10 mg/kg weekly: 6.6% and -2.8% and 2.1%
oral, daily, 30 mg/kg, day 22, anti-PD1 combination study: 7.7% and -4.7% and 7.6% and -1%
oral, 30 mg/kg once daily, day 22: 0.9% and -3.6% and -1.4% and 5.8%
oral, 30 mg/kg once daily, day 3: -5% and -3.8% and 0% and -0.9% and 0.9%
30 mg/kg, day 46, together with: anti-LAG3 antibody 10 mg/kg weekly: 11.1%
oral, 30 mg/kg once daily, day 14: -1.6% and -3.8% and 5.6% and 0% and 1.5%
30 mg/kg, day 17, together with: anti-LAG3 antibody 10 mg/kg weekly: 1.4% and -0.3% and 5.3% and 7.4% and 0% and -2.9% and 1.2% and -0.8%
30 mg/kg, day 1, together with: anti-LAG3 antibody 10 mg/kg weekly: 0%
30 mg/kg, day 23, together with: anti-LAG3 antibody 10 mg/kg weekly: -3.1% and -2.5% and 2% and -1.6% and 0.8% and 4.5%

Series 2
SMILES: COc1cc(C(=O)OCCCN2CCCN(CCCOC(=O)c3cc(OC)c(OC)c(OCc4ccc([N+](=O)[O-])cc4)c3)CC2)cc(OC)c1OC
Route: intrathecal
Measurement: licking duration
male mouse, formalin pain; 10 nmol, 5 to 10 min: 37.9 s and 38.4 s and 21 s and 38.1 s
female mouse, formalin pain; 10 nmol, 0 to 10 min: 189 s and 228 s and 260 s and 182 s
female mouse, formalin pain; 1 nmol, 0 to 5 min: 159 s and 174 s and 184 s and 200 s
male mouse, formalin pain; 1 nmol, 0 to 5 min: 134 s and 187 s and 193 s and 160 s
male mouse, formalin pain; 10 nmol, 25 to 30 min: 60.8 s and 58 s and 65.3 s and 65 s
female mouse, formalin pain; 10 nmol, 0 to 5 min: 181 s and 177 s and 164 s and 213 s

Series 3
Structure (SMILES): Cc1c(NC(=O)c2cccn(-c3ccc(F)cc3)c2=O)ccc(Oc2ccnc(NC(=O)C3CC3)c2)c1C
Target: Receptor-interacting serine/threonine-protein kinase 3 (RIPK3, Homo sapiens, UniProt Q9Y572)
Chain of UniProt Q9Y572 (whole entry, looked up): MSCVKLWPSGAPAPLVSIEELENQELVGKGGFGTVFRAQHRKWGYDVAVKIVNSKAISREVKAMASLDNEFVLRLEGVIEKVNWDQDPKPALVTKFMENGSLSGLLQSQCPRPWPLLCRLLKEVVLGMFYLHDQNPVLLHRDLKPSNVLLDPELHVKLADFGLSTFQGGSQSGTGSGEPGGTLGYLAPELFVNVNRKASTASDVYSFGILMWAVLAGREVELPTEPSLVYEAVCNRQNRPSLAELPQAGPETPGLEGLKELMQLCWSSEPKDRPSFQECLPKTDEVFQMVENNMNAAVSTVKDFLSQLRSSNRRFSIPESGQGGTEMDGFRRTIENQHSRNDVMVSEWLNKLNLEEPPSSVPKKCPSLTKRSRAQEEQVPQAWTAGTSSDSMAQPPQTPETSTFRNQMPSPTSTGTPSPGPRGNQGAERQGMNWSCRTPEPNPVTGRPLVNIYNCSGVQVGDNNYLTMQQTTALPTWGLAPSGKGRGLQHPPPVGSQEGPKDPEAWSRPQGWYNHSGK
Observed: kinase activity
Action: inhibitor
Time: 1 h
Measurement: inhibition
ADP-Glo kinase; 1000 nM: 99.3%
ADP-Glo; 15.62 nM: 37%
ADP-Glo; 3.906 nM: 35.4%
ADP-Glo; 62.5 nM: 71.9%
ADP-Glo; 500 nM: 100%

Series 4
Cell line: MDA-MB-231
Observed: cell viability
Method: CellCounting-Lite
Tested at: 666.7 nM
Temperature: 37 °C
Reading: higher = more viable cells
Measurement: luminescence signal
CC(=O)N1CCN(c2nc(NCc3nc4cc(Cl)c(Cl)cc4[nH]3)c3ncn(C)c3n2)CC1: 24300 a.u. and 37100 a.u. and 18800 a.u.
CCn1cnc2c(NCc3nc4cc(Cl)c(Cl)cc4[nH]3)nc(N3CCC(NC(C)=O)CC3)nc21: 37300 a.u. and 52800 a.u. and 44000 a.u.
CCn1cnc2c(NCc3nc4cc(Cl)c(Cl)cc4[nH]3)nc(N3CCN(S(C)(=O)=O)CC3)nc21: 12200 a.u. and 14100 a.u. and 13400 a.u.
CCn1cnc2c(NCc3nc4cc(Cl)c(Cl)cc4[nH]3)nc(N3CCN(C(=O)c4cccnc4)CC3)nc21: 12400 a.u. and 14400 a.u. and 17200 a.u.
CCn1cnc2c(NCc3nc4cc(Cl)c(Cl)cc4[nH]3)nc(N3CCN(C(=O)CNC(C)=O)CC3)nc21: 9820 a.u. and 9370 a.u. and 10600 a.u.
CCn1cnc2c(NCc3nc4cc(Cl)c(Cl)cc4[nH]3)nc(N3CCN(Cc4ccncc4)CC3)nc21: 17800 a.u. and 27300 a.u. and 15300 a.u.
CCn1cnc2c(NCc3nc4cc(F)c(F)cc4[nH]3)nc(N3CCn4ncnc4C3)nc21: 35300 a.u. and 38300 a.u. and 35900 a.u.
CCn1cnc2c(NCc3nc4ccc(F)c(F)c4[nH]3)nc(N3CCn4ncnc4C3)nc21: 13600 a.u. and 18000 a.u.

Other studies, line by line
C=CCN1C(=O)C(O)(C(=O)O)Oc2cc(F)ccc21 (stereo not drawn) — inhibition (Setaria viridis; fresh weight; 150 g ai/ha, pre-emergence treatment): 51.2% and 48.2% and 50.6%
